# Published values from different studies.
# Lines come from different studies, so protocols differ. Numbers after ± are the reported error.
SMILES,cell line,test,setting,IC50 [µM]
C=C(C(=O)O)[C@@H]1CC[C@@]2(C)CCC(=O)C(C)=C2C1,human Neutrophil,"elastase release, inhibitor",,> 10
Cc1cc(C)c(N2CCN(c3c(C)cc(C)cc3C)C2=[Se])c(C)c1.[Cl][Au],A2780 ADR,MTT,72 h,0.7 ± 0.1
C[C@H]1C(OCCCCCCC[P+](c2ccccc2)(c2ccccc2)c2ccccc2)O[C@@H]2O[C@@]3(C)CCC4[C@H](C)CCC1[C@]42OO3 (some centres unmarked),OVCAR-3,"cell growth or viability, MTT",72 h,0.103
NC1CCCCC1N.O=C1[O][Pt]([O]C(=O)c2ccc(P(c3ccccc3)c3ccccc3)cc2)([O]C(=O)c2ccc(P(c3ccccc3)c3ccccc3)cc2)[O]C1=O.[Cl][Au].[Cl][Au],CAKI-1,"cell growth or viability, resazurin",72 h,3.01
COc1cc(C(c2c(C)nn(-c3ccccc3)c2O)c2c(C)nn(-c3ccccc3)c2O)cc(OC)c1OC,various human cancer cell lines,"cell growth, MTT",,5.45 to 18.3
CC(C)C[C@@H](NC(=O)[C@@H](CC(C)C)NC(=O)[C@@H](CO)NC(=O)[C@@H](Cc1c[nH]cn1)NC(=O)[C@@H](CC(C)C)NC(=O)[C@@H](CO)NC(=O)[C@@H](CCCNC(=N)N)NC(=O)[C@@H](CO)NC(=O)[C@H](N)Cc1ccccc1)C(=O)NCC(=O)NCCCCCC(=O)N[C@H](CCCNC(=N)N)C(=O)N[C@H](CCCNC(=N)N)C(=O)N[C@H](CCCNC(=N)N)C(=O)N[C@H](CCCNC(=N)N)C(=O)N[C@H](CCCNC(=N)N)C(=O)N[C@H](CCCNC(=N)N)C(=O)N[C@H](CCCNC(=N)N)C(=O)N[C@H](CCCNC(=N)N)C(=O)NCC(=O)N[C@@H](CS)C(=O)O,KG-1a,"cell viability, MTT","1 h exposure then 23 h, 37 °C, complete medium with serum",12
[Cl][Au].[Se]=c1n(C2CCCCC2)ccn1C1CCCCC1,H157 spheroids,acid phosphatase,"72 h, 3D spheroid",5.3 ± 0.1
CC[C@H](C)[C@H](NC(=O)[C@H](CCCNC(=N)N)NC(=O)[C@H](CCCNC(=N)N)NC(=O)[C@H](CCCNC(=N)N)NC(=O)[C@@H](NC(=O)[C@@H](NC(=O)[C@H](C)NC(=O)[C@H](CCCNC(=N)N)NC(=O)[C@H](CCCNC(=N)N)NC(=O)[C@H](CCCNC(=N)N)NC(=O)[C@@H]1CCCN1C(=O)[C@@H](N)CCCNC(=N)N)[C@@H](C)O)[C@@H](C)O)C(=O)N[C@H](C(=O)N[C@H](C(=O)NCC(=O)N[C@H](C(=O)N[C@@H](CCCNC(=N)N)C(=O)N[C@@H](CCCNC(=N)N)C(=O)N[C@@H](CCCNC(=N)N)C(=O)N[C@@H](CCCNC(=N)N)C(N)=O)[C@@H](C)O)[C@@H](C)O)[C@@H](C)O,SK-BR-3,"cell viability, CellTiter-Blue","24 h, serum-free medium",71.2 ± 1.1
CNC(=O)c1cc(Oc2ccc(NC(=O)c3cc(-c4ccc(COC(=O)CCC(=O)OC5OC6OC7(C)CCC8C(C)CCC(C5C)C68OO7)cc4)ccn3)cc2)ccn1 (centres unmarked),Huh-7,"cell growth or viability, MTT",72 h,12.8
COC(=O)CC[C@@H](NC(=O)[C@@H](Cc1ccc(OP(=O)(O)O)cc1)NC(=O)[C@@H](Cc1ccccc1)NC(=O)[C@@H](Cc1ccccc1)NC(=O)Cc1ccc2ccccc2c1)C(=O)OC,OVCAR-3,cell growth or viability,,> 200
CC[C@H](C)[C@H](NC(=O)CNC(=O)[C@H](C)NC(=O)[C@@H]1CCCN1C(=O)CNC(=O)[C@H](C)NC(=O)[C@H](CCC(=O)O)NC(=O)[C@H](C)NC(=O)[C@H](CC(=O)O)NC(=O)[C@H](C)NC(=O)[C@H](CCC(=O)O)NC(=O)[C@H](C)NC(=O)[C@H](CCC(=O)O)NC(=O)[C@@H]1CCCN1C(=O)[C@H](CCC(=O)O)NC(=O)CNC(C)=O)C(=O)NCC(=O)N[C@@H](C)C(=O)N[C@H](C(=O)N[C@@H](CC(C)C)C(=O)N[C@@H](CCCCN)C(=O)N[C@H](C(=O)N[C@@H](CC(C)C)C(=O)N[C@H](C(=O)N[C@H](C(=O)NCC(=O)N[C@@H](CC(C)C)C(=O)N1CCC[C@H]1C(=O)N[C@@H](C)C(=O)N[C@@H](CC(C)C)C(=O)N[C@H](C(=O)N[C@@H](CO)C(=O)N[C@@H](Cc1c[nH]c2ccccc12)C(=O)N[C@H](C(=O)N[C@@H](CCCCN)C(=O)N[C@@H](CCCNC(=N)N)C(=O)N[C@@H](CCCCN)C(=O)N[C@@H](CCCNC(=N)N)C(=O)N[C@@H](CCC(N)=O)C(=O)N[C@@H](CCC(N)=O)C(N)=O)[C@@H](C)CC)[C@@H](C)CC)[C@@H](C)O)[C@@H](C)O)C(C)C)C(C)C,MCF7 vector control (FAP-negative),"cell viability, MTT",72 h,47.9 ± 2.9

# Repeated from above:
SMILES,cell line,test,setting,IC50 [µM]
Cc1cc(C)c(N2CCN(c3c(C)cc(C)cc3C)C2=[Se])c(C)c1.[Cl][Au],A2780 ADR,MTT,72 h,0.7 ± 0.1
